Assay results collected from several papers.
Parts stem from different laboratories: compare values within a part only. Values joined by “and” are separate records of one study, mostly repeats; a detail may differ.
Sequence of UniProt Q13131 (whole entry, looked up): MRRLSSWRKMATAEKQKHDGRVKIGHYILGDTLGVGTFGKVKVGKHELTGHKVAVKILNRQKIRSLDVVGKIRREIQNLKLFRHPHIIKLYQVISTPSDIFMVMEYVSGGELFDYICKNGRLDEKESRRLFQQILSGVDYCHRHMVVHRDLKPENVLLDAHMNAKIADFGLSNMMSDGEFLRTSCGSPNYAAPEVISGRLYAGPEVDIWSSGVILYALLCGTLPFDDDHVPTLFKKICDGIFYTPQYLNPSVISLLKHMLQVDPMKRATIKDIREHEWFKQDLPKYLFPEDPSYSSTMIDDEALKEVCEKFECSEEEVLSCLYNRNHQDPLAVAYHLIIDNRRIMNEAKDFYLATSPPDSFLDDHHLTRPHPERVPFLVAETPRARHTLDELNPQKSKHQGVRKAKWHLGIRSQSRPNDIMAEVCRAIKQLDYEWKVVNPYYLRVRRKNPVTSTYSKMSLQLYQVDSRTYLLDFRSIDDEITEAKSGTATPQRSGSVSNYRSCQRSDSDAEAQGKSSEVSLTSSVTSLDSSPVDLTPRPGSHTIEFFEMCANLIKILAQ
Sequence of UniProt Q96GD4 (whole entry, looked up): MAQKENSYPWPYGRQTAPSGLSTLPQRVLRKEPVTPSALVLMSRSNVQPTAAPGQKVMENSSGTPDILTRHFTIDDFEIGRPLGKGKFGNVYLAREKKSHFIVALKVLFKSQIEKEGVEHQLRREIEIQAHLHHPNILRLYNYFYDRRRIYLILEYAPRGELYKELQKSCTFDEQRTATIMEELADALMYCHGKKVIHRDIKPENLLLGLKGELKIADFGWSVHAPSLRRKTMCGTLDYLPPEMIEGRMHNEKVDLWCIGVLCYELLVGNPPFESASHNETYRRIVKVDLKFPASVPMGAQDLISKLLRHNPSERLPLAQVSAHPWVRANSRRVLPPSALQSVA
Sequence of UniProt P19784 (whole entry, looked up): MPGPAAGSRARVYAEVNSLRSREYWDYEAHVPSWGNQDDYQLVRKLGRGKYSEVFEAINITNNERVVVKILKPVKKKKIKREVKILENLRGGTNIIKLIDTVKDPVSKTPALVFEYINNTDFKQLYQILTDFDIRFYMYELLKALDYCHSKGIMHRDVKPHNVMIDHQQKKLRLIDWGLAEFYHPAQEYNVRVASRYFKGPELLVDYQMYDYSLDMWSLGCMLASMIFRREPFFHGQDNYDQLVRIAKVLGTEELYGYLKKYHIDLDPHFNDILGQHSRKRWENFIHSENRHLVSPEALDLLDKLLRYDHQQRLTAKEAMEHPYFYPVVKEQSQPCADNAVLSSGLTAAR
Sequence of UniProt Q9UHD2 (whole entry, looked up): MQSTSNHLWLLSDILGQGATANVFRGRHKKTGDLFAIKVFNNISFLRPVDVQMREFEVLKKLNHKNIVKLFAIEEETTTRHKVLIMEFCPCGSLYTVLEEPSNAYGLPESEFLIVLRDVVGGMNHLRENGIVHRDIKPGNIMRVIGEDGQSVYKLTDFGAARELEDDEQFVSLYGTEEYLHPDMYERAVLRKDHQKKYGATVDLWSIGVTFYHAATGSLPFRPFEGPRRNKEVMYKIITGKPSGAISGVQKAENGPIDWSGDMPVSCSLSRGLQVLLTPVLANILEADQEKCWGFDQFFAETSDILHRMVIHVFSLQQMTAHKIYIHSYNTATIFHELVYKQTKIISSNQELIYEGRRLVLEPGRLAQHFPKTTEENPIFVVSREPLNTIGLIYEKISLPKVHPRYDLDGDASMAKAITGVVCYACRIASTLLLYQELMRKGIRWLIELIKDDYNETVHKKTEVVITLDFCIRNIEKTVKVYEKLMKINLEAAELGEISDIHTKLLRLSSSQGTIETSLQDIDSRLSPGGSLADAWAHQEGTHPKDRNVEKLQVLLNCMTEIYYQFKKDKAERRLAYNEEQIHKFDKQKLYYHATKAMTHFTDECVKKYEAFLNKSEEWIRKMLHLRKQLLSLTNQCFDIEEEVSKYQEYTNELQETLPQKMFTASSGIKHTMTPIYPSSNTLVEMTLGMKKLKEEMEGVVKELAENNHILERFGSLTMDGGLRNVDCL
Sequence of UniProt Q9UIK4 (whole entry, looked up): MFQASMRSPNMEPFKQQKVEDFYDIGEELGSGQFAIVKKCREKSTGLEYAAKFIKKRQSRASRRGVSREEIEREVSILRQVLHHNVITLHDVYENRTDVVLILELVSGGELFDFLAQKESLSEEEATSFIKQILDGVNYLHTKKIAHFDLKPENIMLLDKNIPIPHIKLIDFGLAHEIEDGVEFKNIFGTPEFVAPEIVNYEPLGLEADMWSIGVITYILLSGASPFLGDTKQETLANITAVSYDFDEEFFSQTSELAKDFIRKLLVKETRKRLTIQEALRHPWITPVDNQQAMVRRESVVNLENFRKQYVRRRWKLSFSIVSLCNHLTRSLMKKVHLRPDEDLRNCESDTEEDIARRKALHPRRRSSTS

Study 1 — action: degrader; technique: HiBiT; cells: HEK293
SMILES: Cn1cc(-c2cccc(CN3CCC4(CC3)COc3c4ccc4c3CN([C@@H]3CCC(=O)NC3=O)C4=O)c2)cn1
Target: CRBN/Zinc finger protein Helios (Homo sapiens, UniProt Q96SW2+Q9UKS7)
Sequence of UniProt Q9UKS7 (whole entry, looked up): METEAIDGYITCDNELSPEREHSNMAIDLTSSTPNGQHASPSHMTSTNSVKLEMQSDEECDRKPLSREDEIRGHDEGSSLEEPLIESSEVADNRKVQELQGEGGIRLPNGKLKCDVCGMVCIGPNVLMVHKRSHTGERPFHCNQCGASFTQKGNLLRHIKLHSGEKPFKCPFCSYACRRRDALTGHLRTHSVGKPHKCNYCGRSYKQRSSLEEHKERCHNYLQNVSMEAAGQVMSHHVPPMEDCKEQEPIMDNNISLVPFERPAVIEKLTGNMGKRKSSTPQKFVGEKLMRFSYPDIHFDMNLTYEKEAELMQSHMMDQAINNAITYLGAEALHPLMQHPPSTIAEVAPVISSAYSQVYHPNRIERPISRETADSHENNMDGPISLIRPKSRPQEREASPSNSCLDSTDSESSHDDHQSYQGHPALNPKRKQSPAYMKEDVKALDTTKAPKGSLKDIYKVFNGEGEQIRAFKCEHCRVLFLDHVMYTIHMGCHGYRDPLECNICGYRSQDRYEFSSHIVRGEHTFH
Sequence of UniProt Q96SW2 (whole entry, looked up): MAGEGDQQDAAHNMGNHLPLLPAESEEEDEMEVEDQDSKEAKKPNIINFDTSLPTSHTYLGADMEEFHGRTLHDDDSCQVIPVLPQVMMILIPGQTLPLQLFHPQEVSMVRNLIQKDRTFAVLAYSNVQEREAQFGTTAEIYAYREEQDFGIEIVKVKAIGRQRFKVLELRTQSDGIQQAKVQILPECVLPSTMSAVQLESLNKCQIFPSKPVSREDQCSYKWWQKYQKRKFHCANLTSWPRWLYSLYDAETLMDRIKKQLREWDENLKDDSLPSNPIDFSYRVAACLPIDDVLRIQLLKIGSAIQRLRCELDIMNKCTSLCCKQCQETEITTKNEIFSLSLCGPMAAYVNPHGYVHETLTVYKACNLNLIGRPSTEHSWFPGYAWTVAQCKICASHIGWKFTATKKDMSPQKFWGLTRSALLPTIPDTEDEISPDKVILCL
concentration	protein remaining
12.35 nM	35.9% and 33.6%
37.04 nM	19.8% and 21.4%
0.4572 nM	89.6% and 103%
0.01694 nM	91.7% and 103%

Study 2 — SMILES: O=C(Nc1ccccc1)Nc1cccc(Oc2ccc3nccn3n2)c1; observed: enzyme activity; action: inhibitor; technique: radiometric
target	IC50 [nM]
TEK (Homo sapiens, UniProt Q02763)	> 10000
KIT (Homo sapiens, UniProt P10721)	11
CIT (Homo sapiens, UniProt O14578)	3000
PDGFRA (Homo sapiens, UniProt P16234)	260
MAP3K19 (Homo sapiens, UniProt Q56UN5)	1300

Study 3 — technique: NanoBRET; concentration: 1 µM
SMILES: COc1cc(-c2nc3ccc(C(=O)NCCCN(C)C)cc3n2C2CCC2)cc(OC)c1OC
target	target occupancy [%]
Aurora kinase B (AURKB, Homo sapiens, UniProt Q96GD4)	0.58
CSNK2A2 (Homo sapiens, UniProt P19784)	-4.2
DAPK2 (Homo sapiens, UniProt Q9UIK4)	-3.39
TBK1 (Homo sapiens, UniProt Q9UHD2)	0.95
PRKAA1 (Homo sapiens, UniProt Q13131)	-2.57
CDK7 (Homo sapiens, UniProt P50613)	-0.83
STK33 (Homo sapiens, UniProt Q9BYT3)	1.24
Cyclin-dependent kinase 4, with cyclin D3 (CDK4, Homo sapiens, UniProt P11802)	3.78

Study 4 — observed: kinase activity; action: inhibitor; technique: ADP-Glo; concentration: 0.0009 µM
Target: Cyclin-dependent kinase 12, with cyclin K (CDK12, Homo sapiens, UniProt Q9NYV4)
Sequence of UniProt Q9NYV4 (whole entry, looked up): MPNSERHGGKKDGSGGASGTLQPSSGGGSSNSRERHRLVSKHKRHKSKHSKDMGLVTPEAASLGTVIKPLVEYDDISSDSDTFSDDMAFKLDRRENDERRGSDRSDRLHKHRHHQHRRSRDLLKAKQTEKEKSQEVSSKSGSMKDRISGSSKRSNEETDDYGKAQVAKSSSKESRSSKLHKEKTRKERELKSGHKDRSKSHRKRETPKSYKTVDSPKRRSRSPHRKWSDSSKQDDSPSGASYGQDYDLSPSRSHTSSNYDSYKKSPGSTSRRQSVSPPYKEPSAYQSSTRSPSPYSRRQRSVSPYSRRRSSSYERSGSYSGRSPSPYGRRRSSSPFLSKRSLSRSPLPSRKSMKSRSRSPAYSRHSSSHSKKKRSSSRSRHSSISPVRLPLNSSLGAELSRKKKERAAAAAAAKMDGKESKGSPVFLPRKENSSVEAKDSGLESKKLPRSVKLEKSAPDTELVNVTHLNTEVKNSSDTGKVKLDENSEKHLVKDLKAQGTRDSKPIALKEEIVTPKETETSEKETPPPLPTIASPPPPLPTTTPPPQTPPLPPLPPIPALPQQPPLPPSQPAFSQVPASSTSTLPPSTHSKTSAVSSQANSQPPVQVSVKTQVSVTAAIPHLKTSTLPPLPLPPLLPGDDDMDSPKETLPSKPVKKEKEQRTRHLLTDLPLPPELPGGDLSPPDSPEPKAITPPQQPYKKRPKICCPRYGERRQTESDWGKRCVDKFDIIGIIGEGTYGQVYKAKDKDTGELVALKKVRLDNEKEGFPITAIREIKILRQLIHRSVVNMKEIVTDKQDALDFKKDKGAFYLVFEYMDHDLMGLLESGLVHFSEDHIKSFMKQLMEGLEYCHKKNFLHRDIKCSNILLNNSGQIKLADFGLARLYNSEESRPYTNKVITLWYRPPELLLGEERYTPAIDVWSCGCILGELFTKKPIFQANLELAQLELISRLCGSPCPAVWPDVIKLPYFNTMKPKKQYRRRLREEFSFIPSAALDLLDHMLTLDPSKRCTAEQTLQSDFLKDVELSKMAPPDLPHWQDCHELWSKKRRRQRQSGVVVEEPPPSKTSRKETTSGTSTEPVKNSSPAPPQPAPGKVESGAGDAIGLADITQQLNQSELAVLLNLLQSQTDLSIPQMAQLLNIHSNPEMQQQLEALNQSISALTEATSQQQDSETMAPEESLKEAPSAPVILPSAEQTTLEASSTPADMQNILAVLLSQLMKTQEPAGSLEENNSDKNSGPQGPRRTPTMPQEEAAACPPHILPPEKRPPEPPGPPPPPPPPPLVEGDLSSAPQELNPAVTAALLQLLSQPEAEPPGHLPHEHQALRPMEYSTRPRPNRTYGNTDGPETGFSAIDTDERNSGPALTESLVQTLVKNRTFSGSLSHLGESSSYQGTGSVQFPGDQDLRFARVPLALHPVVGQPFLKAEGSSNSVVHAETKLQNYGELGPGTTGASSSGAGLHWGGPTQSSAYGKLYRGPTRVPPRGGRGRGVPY
SMILES	inhibition [%]
CCn1cnc2c(NCc3nc4cc(Cl)c(Cl)cc4[nH]3)nc(N3CCC(NC(C)=O)CC3)nc21	-6.5
CCn1cnc2c(NCc3nc4cc(F)c(F)cc4[nH]3)nc(N3CCn4ncnc4C3)nc21	10.9
CCn1cnc2c(NCc3nc4cc(Cl)c(Cl)cc4[nH]3)nc(N3CCn4ncnc4C3)nc21	15.7
CCn1cnc2c(NCc3nc4cc(Cl)c(Cl)cc4[nH]3)nc(N3CCN(c4ccccn4)CC3)nc21	3.1
CC(=O)N1CCN(c2nc(NCc3nc4cc(Cl)c(Cl)cc4[nH]3)c3ncn(C(C)C)c3n2)CC1	2.3
Cn1cc(-n2cnc3c(NCc4nc5cc(Cl)c(Cl)cc5[nH]4)nc(N4CCNCC4)nc32)cn1	-6.4
CCn1cnc2c(NCc3nc4cc(Cl)c(Cl)cc4[nH]3)nc(N3CCN(C(=O)c4ccccn4)CC3)nc21	-5.5
CC(=O)N1CCN(c2nc(NCc3nc4cc(Cl)c(Cl)cc4[nH]3)c3ncn(-c4cnn(C)c4)c3n2)CC1	-6.5

For quick reference, copied from above (study 2):
target	IC50 [nM]
PDGFRA (Homo sapiens, UniProt P16234)	260
MAP3K19 (Homo sapiens, UniProt Q56UN5)	1300
